Published values gathered from unrelated publications.
Lines come from different studies, so protocols differ. “And” joins repeats or separate records; there may be more than shown. Numbers after ± are the reported error.
USP3 ZnF-UBD domain: Ubiquitin carboxyl-terminal hydrolase 3, ZnF-UBD domain (USP3, Homo sapiens, UniProt Q9Y6I4)
Chain of UniProt Q9Y6I4 (whole entry, looked up): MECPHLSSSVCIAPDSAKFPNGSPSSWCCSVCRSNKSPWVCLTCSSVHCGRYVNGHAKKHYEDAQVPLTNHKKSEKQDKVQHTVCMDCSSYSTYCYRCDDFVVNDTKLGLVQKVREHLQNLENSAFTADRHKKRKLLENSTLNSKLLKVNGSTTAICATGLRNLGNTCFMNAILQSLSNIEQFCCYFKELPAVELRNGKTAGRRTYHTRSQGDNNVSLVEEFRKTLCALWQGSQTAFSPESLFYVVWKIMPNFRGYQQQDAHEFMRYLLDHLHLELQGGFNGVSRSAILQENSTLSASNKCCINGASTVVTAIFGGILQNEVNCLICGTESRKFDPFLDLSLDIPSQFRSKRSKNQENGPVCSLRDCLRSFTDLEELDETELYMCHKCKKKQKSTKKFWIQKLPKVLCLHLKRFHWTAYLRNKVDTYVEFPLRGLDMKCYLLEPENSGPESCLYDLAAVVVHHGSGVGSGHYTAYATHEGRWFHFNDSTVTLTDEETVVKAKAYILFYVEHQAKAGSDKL
Chain of UniProt Q16774 (whole entry, looked up): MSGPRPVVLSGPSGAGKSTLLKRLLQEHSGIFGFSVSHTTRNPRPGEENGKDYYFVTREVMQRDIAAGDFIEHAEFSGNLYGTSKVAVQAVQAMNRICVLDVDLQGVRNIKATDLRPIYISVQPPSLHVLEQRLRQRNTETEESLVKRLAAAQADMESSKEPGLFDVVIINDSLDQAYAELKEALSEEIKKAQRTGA
Chain of UniProt P35555 (whole entry, looked up): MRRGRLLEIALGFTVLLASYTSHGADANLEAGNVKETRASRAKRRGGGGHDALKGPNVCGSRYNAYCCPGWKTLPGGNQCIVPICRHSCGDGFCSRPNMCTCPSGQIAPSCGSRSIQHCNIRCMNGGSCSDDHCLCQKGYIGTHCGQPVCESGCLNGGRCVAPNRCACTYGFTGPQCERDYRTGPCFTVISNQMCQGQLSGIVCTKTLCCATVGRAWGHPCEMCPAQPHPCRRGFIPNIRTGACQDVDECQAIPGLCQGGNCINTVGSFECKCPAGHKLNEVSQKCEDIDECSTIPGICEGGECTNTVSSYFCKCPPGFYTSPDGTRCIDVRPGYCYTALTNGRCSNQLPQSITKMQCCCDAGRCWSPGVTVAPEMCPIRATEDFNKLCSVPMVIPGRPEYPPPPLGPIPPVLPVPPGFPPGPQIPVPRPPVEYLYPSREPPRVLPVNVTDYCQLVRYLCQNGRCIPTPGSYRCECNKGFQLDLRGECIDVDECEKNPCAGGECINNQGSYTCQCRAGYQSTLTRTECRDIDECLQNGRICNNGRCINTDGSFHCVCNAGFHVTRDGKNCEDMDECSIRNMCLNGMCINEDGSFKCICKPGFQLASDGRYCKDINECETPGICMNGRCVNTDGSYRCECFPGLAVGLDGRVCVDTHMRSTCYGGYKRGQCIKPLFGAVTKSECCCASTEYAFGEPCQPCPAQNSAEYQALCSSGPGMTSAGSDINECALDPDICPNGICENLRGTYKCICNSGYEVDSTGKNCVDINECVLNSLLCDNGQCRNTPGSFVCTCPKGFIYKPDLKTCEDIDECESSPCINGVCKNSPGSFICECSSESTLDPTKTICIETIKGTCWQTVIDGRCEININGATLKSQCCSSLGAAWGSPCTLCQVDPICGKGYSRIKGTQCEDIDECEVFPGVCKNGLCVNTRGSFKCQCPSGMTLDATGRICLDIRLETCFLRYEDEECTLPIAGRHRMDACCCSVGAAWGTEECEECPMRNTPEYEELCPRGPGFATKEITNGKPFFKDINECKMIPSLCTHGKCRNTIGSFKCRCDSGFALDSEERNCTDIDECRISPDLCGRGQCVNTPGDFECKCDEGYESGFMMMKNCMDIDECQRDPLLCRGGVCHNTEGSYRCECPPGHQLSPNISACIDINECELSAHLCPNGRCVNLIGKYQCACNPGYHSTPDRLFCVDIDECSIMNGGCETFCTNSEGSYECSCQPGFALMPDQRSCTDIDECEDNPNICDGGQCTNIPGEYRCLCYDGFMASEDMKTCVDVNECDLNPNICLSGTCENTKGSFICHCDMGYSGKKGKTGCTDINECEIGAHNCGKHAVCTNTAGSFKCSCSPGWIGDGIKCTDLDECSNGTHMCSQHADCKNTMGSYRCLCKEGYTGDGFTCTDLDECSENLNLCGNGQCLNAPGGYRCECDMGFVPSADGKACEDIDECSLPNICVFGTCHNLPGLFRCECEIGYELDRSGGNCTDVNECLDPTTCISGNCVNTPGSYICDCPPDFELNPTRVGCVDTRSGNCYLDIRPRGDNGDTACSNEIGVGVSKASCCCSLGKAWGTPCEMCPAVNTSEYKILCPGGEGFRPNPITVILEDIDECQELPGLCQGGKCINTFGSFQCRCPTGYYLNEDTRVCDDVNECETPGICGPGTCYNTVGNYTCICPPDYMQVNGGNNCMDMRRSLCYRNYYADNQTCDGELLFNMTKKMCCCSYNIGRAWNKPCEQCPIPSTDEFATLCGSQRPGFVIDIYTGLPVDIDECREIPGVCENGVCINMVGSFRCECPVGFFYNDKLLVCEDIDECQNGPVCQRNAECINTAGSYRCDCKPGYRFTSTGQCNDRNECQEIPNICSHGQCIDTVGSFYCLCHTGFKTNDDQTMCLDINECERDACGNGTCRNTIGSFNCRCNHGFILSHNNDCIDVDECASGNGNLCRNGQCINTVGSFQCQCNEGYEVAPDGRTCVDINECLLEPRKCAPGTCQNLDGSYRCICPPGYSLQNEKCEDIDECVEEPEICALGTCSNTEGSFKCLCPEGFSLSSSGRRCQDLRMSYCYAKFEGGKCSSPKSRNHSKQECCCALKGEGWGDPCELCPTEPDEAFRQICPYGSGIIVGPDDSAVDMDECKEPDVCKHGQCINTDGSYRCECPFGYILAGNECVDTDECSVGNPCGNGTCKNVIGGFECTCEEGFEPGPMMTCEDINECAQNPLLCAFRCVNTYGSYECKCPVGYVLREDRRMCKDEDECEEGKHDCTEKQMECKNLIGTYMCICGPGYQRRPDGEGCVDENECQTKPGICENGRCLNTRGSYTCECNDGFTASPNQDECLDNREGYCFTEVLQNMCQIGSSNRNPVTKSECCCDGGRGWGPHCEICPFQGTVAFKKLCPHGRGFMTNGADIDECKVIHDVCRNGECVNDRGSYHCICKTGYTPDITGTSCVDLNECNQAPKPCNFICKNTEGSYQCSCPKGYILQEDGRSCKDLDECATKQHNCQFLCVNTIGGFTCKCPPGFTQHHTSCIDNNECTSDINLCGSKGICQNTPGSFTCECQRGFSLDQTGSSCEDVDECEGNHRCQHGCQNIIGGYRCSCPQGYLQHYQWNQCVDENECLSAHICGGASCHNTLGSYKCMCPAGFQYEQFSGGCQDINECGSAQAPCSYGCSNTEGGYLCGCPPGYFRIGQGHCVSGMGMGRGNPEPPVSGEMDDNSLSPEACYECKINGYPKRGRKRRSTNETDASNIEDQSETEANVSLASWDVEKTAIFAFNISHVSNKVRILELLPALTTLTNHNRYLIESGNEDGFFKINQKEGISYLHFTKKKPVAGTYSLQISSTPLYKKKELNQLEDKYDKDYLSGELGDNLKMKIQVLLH
Chain of UniProt Q08499 (whole entry, looked up): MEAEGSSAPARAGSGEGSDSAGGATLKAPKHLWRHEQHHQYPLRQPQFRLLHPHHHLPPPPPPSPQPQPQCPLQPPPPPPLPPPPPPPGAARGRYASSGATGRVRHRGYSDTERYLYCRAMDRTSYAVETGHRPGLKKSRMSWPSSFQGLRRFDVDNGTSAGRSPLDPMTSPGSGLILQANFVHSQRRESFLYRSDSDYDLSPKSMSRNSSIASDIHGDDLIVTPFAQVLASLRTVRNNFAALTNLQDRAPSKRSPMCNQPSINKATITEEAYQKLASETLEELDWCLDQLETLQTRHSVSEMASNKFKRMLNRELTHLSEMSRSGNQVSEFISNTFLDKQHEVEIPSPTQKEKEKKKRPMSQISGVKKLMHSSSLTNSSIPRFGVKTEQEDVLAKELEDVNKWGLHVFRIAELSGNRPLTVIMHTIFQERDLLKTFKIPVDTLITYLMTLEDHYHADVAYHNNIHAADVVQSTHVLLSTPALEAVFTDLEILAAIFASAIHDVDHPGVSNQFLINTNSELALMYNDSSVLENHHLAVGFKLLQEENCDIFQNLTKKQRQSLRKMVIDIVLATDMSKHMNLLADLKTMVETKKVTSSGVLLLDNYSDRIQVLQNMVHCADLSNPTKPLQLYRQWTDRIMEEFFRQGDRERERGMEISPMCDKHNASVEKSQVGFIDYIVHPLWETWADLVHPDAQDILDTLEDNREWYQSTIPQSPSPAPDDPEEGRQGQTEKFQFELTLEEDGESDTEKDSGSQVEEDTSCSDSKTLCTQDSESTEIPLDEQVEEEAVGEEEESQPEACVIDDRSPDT
Chain of UniProt P98170 (whole entry, looked up): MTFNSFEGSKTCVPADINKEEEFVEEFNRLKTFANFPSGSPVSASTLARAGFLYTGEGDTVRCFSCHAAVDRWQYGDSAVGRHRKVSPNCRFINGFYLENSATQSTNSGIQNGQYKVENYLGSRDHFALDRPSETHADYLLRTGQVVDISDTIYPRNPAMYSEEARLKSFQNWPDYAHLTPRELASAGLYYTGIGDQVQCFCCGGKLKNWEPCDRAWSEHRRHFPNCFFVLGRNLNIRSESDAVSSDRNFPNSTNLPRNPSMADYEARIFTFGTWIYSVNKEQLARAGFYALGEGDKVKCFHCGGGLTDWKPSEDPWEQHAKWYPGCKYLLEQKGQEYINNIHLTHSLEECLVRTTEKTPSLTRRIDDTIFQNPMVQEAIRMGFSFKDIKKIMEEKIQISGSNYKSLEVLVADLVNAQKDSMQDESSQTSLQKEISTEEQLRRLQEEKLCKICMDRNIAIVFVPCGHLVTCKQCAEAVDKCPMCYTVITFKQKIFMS
Chain of UniProt P02754 (whole entry, looked up): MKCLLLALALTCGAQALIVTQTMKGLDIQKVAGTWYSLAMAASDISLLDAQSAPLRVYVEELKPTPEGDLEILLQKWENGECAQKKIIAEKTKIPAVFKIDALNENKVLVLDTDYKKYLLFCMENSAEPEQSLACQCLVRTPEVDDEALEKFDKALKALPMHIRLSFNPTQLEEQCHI

| SMILES | target | test | test system | conditions | Kd |
| --- | --- | --- | --- | --- | --- |
| CC[C@H](C)[C@H](NC(=O)[C@H](Cc1c[nH]c2ccccc12)NC(=O)[C@H](CO)NC(=O)[C@H](Cc1ccccc1)NC(=O)[C@H](Cc1ccccc1)NC(=O)[C@H](CC(C)C)NC(=O)[C@H](C)NC(=O)CNC(=O)[C@@H]1CCCN1C(=O)[C@H](CCCNC(=N)N)NC(=O)[C@H](CC(C)C)NC(=O)[C@H](CO)NC(=O)[C@@H](N)CC(N)=O)C(=O)N[C@@H](CC(N)=O)C(=O)N[C@@H](CCCCN)C(=O)N[C@H](C(=O)N[C@@H](CO)C(=O)N1CCC[C@H]1C(=O)N[C@H](C(=O)N[C@H](C(=O)O)[C@@H](C)O)C(C)C)[C@@H](C)O | DNA repair protein REV1, C-terminal domain (Homo sapiens, UniProt Q9UBZ9) | inhibitor, fluorescence competition |  | together with: pol κ RIR | 32 µM |
| NC[C@@H]1O[C@H](O[C@H]2[C@@H](O)[C@H](O[C@@H]3[C@@H](O)[C@H](N)C[C@H](N)[C@H]3O[C@H]3O[C@H](CO)[C@@H](O)[C@H](O)[C@H]3N)O[C@@H]2CO)[C@H](N)[C@@H](O)[C@@H]1O | de novo protein S23 | binding, NMR |  |  | 15 ± 14 µM |
| Cc1cc2nc3c(=O)[nH]c(=O)nc-3n(C[C@H](O)[C@H](O)[C@H](O)COP(=O)(O)OP(=O)(O)OC[C@H]3O[C@@H](n4cnc5c(N)ncnc54)[C@H](O)[C@@H]3O)c2cc1C | Fibrillin-1 (FBN1, Homo sapiens, UniProt P35555) | binding, MS pulldown competition | SW-620 cell lysate |  | 18.1 µM |
| C[C@H](N)C(=O)N[C@@H](CCCCNC(=O)CCCCC(=O)NCCCC[C@H](NC(=O)[C@H](C)N)C(=O)N1CCC[C@H]1C(=O)N[C@@H](Cc1ccccc1)C(=O)N[C@H](CCCCNC(=O)c1ccc2c(c1)C(=O)OC21c2ccc(O)cc2Oc2cc(O)ccc21)C(N)=O)C(=O)N1CCC[C@H]1C(=O)N[C@@H](Cc1ccccc1)C(N)=O | E3 ubiquitin-protein ligase XIAP, BIR3 domain (XIAP, Homo sapiens, UniProt P98170) | binding, fluorescence polarisation |  | together with: tracer 2 nM | 0.0044 ± 0.0007 µM |
| O=C(O)CCC1=Nc2cccc3cccc(c23)N1 | USP3 ZnF-UBD domain |  |  |  | > 1000 µM |
| Cc1ncsc1-c1ccc(CNC(=O)[C@@H]2C[C@@H](O)CN2C(=O)[C@@H](NC(=O)C2(F)CC2)C(C)(C)C)c(OCCOc2ccc(CN3CCN(c4cc(-c5ccccc5O)nnc4N)CC3)cc2)c1 | SWI/SNF-related matrix-associated actin-dependent regulator of chromatin subfamily A member 4, bromodomain (SMARCA4, Homo sapiens, UniProt P51532) | binding, SPR |  | 6 °C | 2.6 µM |
| COc1cc(C[C@H]2C(=O)OC[C@@H]2Cc2ccc(OC)c(OC)c2)ccc1O | PDE4D (Homo sapiens, UniProt Q08499) | isothermal titration calorimetry |  |  | 1.56 µM |
| CC(C)=CCC/C(C)=C/C=C/C(C)=C/C=C/C(C)=C/C=C/C=C(C)/C=C/C=C(C)/C=C/C=C(\C)CCC=C(C)C | Beta-lactoglobulin (LGB, Bos taurus, UniProt P02754) | binding, fluorescence quenching | PBS | 30 min, 298 K | 0.0147 µM |
| O=C(O)CCn1c(=O)oc2ccccc21 | USP3 ZnF-UBD domain |  |  |  | 817 µM |
| Cn1cncc1C1=CN(c2ncnc3[nH]cnc23)CCS1(=O)=O | PRKACA (Homo sapiens, UniProt P17612) | binding |  |  | 431 ± 274 µM |
| NC1CCN(S(=O)(=O)c2cc(C(=O)Nc3cc(F)c(F)c(F)c3)ccc2F)CC1 | Capsid protein (C, Hepatitis B virus genotype D subtype ayw, UniProt P03146) | surface plasmon resonance |  | 25 °C | 708 µM |
| O=C(O)Cc1cccc2cccnc12 | USP3 ZnF-UBD domain |  |  |  | > 1000 µM |
| C#Cc1c(F)ccc2cc(O)cc(-c3ncc4c(N5CC6CCC(C5)N6)nc(OC[C@@]56CCCN5C[C@H](F)C6)nc4c3F)c12 | Ras-related protein Rap-1A, GDP-bound (Homo sapiens, UniProt P62834) | binding, surface plasmon resonance |  |  | > 30 µM |
| Nc1ncnc2c1ncn2[C@@H]1O[C@H](CO[P@](=O)(O)O[P@](=O)(O)O[P@@](=O)(O)S)[C@@H](O)[C@H]1O | GUK1, part: GMP-bound (Homo sapiens, UniProt Q16774) | binding, ITC |  | together with: ADP and GMP 0.5 mM | 8.2 µM and 13.7 µM and 10.8 µM |
| Nc1ncnc2c1ncn2[C@@H]1O[C@H](COP(=O)(O)OP(=O)(O)NP(=O)(O)O)[C@@H](O)[C@H]1O | Cell cycle histidine kinase CckA, CA domain (Caulobacter vibrioides, UniProt Q9X688) | isothermal titration calorimetry | Caulobacter crescentus | 12 °C, together with: c-di-GMP 100 µM | 43 µM |
| CN(C)c1ccc(C=Cc2nc3ccc(OCCF)cc3s2)cc1 (mixture of isomers) | Amyloid-beta precursor protein, Aβ42 aggregates (APP, Homo sapiens, UniProt P05067) | binding, fluorescence saturation binding | preformed amyloid-beta aggregates in PBS |  | 0.059 ± 0.012 µM |
| O=C(O)CCc1cn2cccnc2n1 | USP3 ZnF-UBD domain |  |  |  | > 1000 µM |
| OC1OC[C@H](O)[C@H](O)[C@H]1O (mixture of isomers) | uncharacterized protein (Pelagibacter ubique, UniProt Q4FMK2) | isothermal titration calorimetry | Candidatus Pelagibacter ubique | one-set-of-sites model | 1.31 ± 0.09 µM |
| O=C(O)Cc1cccnc1 | USP3 ZnF-UBD domain |  |  |  | 121 µM |
| [H]/N=C(/N)N[C@H]1[C@H](O)[C@@H](O)[C@H](O[C@@H]2O[C@@H](C)[C@](O)(C=O)[C@H]2O[C@@H]2O[C@@H](CO)[C@H](O)[C@@H](O)[C@@H]2NC)[C@@H](N/C(N)=N\[H])[C@@H]1O | de novo protein S23 | binding, surface plasmon resonance |  |  | no binding |
| O=C(O)CNc1ccc2nncn2n1 | USP3 ZnF-UBD domain |  |  |  | > 1000 µM |
| COc1cc(Cl)c(C(=O)N[C@@H](CN[C@H]2CC[C@@H](N)CC2)Cc2ccc(C#N)cc2)cc1-c1ccc(CN[C@H](C)c2ccc(C)cc2)o1 | ATPase family AAA domain-containing protein 2, bromodomain (ATAD2, Homo sapiens, UniProt Q6PL18) | microscale thermophoresis |  | GST-tagged protein | 0.0849 µM |
| O=C(O)CN1Cc2ccccc2C1=O | USP3 ZnF-UBD domain |  |  |  | 758 µM |
| CCCCCCCC(=O)OC[C@H](COP(=O)(O)O[C@@H]1[C@H](O)[C@H](O)[C@@H](OP(=O)(O)O)[C@H](OP(=O)(O)O)[C@H]1O)OC(=O)CCCCCCC | Kv7.2/Kv7.3(EEE) mutant channel | channel opening, activator, model fit of open probability |  | model 4, K2, E2 E3 fixed to WT | 96 µM |
| O=C(O)CCc1nc2ccccc2c2nc(Cc3ccccc3)nn12 | USP3 ZnF-UBD domain |  |  |  | 238 µM |
| CCc1nc2cc3ccccc3cc2cc1C(=O)N[C@@H](C/C=C\C[C@H](NC(=O)c1cc2cc3ccccc3cc2nc1CC)C(=O)N1CCC[C@H]1C(=O)N[C@@H](Cc1ccccc1)C(=O)NCCCN)C(=O)N1CCC[C@H]1C(=O)N[C@@H](Cc1ccccc1)C(=O)NCCCN | HIV-1 frameshift RNA upper stem-loop | surface plasmon resonance |  |  | 0.0553 µM |

Excerpt of the above:
| SMILES | target | test | test system | conditions | Kd |
| --- | --- | --- | --- | --- | --- |
| O=C(O)CCc1cn2cccnc2n1 | USP3 ZnF-UBD domain |  |  |  | > 1000 µM |
| Cc1cc2nc3c(=O)[nH]c(=O)nc-3n(C[C@H](O)[C@H](O)[C@H](O)COP(=O)(O)OP(=O)(O)OC[C@H]3O[C@@H](n4cnc5c(N)ncnc54)[C@H](O)[C@@H]3O)c2cc1C | Fibrillin-1 (FBN1, Homo sapiens, UniProt P35555) | binding, MS pulldown competition | SW-620 cell lysate |  | 18.1 µM |
